Measured values from different studies.
Numbered parts are unrelated; each lists some results of a single study.

Sample 1 — method: RNA Bind-n-Seq; molecule type: RNA; matrix: in vitro; tested at: 200 nM; notes: whole 134-nt RNA, ends assumed; added: 150 mM KCl; relative to: input library; direction: higher = stronger binding
Target: Ras GTPase-activating protein-binding protein 1, full length (G3BP1, Homo sapiens, UniProt Q13283)
Chain of UniProt Q13283 (whole entry, looked up): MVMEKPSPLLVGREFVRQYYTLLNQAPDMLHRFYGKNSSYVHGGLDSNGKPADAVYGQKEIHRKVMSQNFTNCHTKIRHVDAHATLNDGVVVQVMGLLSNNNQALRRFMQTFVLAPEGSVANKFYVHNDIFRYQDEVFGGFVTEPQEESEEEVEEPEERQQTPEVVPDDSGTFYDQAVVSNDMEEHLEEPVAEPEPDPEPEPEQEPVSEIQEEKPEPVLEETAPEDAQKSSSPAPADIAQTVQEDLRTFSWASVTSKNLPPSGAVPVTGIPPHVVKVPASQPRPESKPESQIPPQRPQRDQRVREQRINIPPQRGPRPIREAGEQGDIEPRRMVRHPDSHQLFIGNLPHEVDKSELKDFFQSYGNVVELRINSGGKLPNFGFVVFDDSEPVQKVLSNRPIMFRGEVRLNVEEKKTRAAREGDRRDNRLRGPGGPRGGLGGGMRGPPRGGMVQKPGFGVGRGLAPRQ
| Oligonucleotide | log2 enrichment |
| --- | --- |
| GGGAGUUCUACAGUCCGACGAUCUUUUUGAAUCAAUUUUUAAAACAUGCCAUUGUGUUUCAGGCUCGCGGGAUUGAUGUGCAACAAGUGUCUUUGGUUAUAAAUUAUGAUCUAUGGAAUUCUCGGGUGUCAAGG | -0.437 |
| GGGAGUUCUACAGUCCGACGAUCCUCAAGUCCUGUGCUACACAUCGUAUGUACCGAAUCGGGGCCGGCCGGGCCGGGAAAGUAUUAUGUUACGCCGUUCGGAUCUGCACUUCCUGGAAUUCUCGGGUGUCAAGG | -0.312 |
| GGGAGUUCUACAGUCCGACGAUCUGGGAGGUGGAUUUUGUUUAUUUUUUUAGCUCAUUUCCAGGGGUGGGAAUUUUUUUUUAAUAUGUGUCAAGAAUAAAGUUGUUUUUGAAAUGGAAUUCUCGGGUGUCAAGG | 0.101 |
| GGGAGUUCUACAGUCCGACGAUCUCCUCAAGUCCUGUGCUACACAUCGUAUGUACCGAAUCGGUUUGGAGGUGGAAAGUAUUAUGUUACGCCGUUCGGAUCUGCACUUCCAGCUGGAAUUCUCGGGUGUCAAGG | -0.88 |
| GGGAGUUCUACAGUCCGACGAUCCCUGUGCUACACAUCGUAUGUACCGAAUCGGGGAAAAAAAGGGGAGGGGAAAAAAAGGGGAAAGUAUUAUGUUACGCCGUUCGGAUCUGCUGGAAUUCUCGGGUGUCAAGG | 0.0329 |
| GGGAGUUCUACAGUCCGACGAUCGUCCUGUGCUACACAUCGUAUGUACCGAAUCGGGAAAAAGGGAAAAAGGGAAAAAGGGAAAGUAUUAUGUUACGCCGUUCGGAUCUGCACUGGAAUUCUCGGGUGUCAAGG | -0.586 |
| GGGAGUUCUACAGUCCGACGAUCUCCUGUGCUACACAUCGUAUGUACCGAAUCAAAUUUUUUUAAAUUUUUUUAAACCCAAAAAAGUAUUAUGUUACGCCGUUCGGAUCUGCAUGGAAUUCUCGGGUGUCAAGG | -0.0202 |
| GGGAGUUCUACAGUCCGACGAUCAGUCCUGUGCUACACAUCGUAUGUACCGAAUCGGGGUUUUUGGGGUUUGGGGUGGGGAAAGUAUUAUGUUACGCCGUUCGGAUCUGCACUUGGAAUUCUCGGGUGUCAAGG | 0.654 |
| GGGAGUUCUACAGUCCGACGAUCUAUAUUGAGGUAUAGAGCUAUUCUUUGUAGGUACCCUGGUGAGACCGAUACAAAUAUGCCCCUCCCCAUAAUGGAAUACUAAUUUUUAUUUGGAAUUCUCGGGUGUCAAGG | -0.453 |
| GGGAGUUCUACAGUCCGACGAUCGUCCUGUGCUACACAUCGUAUGUACCGAAUCGGGAAAAAGGGUUUGGGAAAAAAAGGGAAAGUAUUAUGUUACGCCGUUCGGAUCUGCACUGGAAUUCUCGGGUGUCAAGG | -0.767 |

Sample 2 — method: RNA Bind-n-Seq; molecule type: RNA; matrix: in vitro; tested at: 365 nM; relative to: no-protein control; direction: higher = stronger binding
Target: RNA binding protein fox-1 homolog 2, RRM domain, GST-SBP tag (RBFOX2, Homo sapiens, UniProt O43251-10, residues 100-194)
Notes: natural RNA segment, single round, ends assumed
Target sequence (chain): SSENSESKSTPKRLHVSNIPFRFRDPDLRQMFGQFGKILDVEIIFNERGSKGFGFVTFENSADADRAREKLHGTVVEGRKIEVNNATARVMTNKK
| Oligonucleotide | RBNS enrichment (R) |
| --- | --- |
| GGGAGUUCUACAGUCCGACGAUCAAGAAGUCUGCCUCUGAGUUACAGCUCUUUCUCAACAAGUACAGAGUUUGAGGCUUGCAGUUGCAACAGCUGGAUGUUUGGUGGUUCUUGCUGCCAGCCAAAUAAAUUGGUGGAAUUCUCGGGUGCCAA | 0.46 |
| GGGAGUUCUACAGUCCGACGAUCUUUAUAAGACUGUGUCUUGUUCACCAGUGAGAGAGGGCUGAGGUCAUUACUCACCUGGCACAGACGGCCUAAAUGCAAUCCCCAGCACAAAAAGAGACUGCCUACAAAUUUGGAAUUCUCGGGUGCCAA | 0.192 |
| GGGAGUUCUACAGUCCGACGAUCUGGAUUUAAACUGCUUAAAAAAGAAAAUGUGACCGGCUCUCCUGCUUGGGUCUCAGGGGAGAUAUGCUUAAGGCCAGAGCUCUUCCUCAGUAUUUGAUUUUUCCAGUGUUUGGAAUUCUCGGGUGCCAA | 4.21 |
| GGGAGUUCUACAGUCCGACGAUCCGGCAGGUGGCAGGUGGUGUUGGGGAUGGUCCUGGAGGGGAUGGCCUGGGCAUACGCCGCCUCCAGCUGCUCAUAACCACCGAUCUGGUUGAAAGCUGGAGGGUGGGGCAUGGAAUUCUCGGGUGCCAA | 0.653 |
| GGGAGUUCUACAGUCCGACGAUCCAGGUGGUAGUCACAUCACCAGAGUGAUCAGUAUAAAUUUUCUUGGUGUAUCCUUUUCCUUUCAACACAGUGCAGAUAAGAGUUGAAUAUUGAUAUCAUACAUUUAGACUUGGAAUUCUCGGGUGCCAA | 0.463 |
| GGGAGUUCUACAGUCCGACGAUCUUGACUUUUUUUUUUAAAUUAAAGAUUGGGAAUGUAUGUGAGAGUAUGCAUAUGUAUGGGUGUGUGUGUGUGCGCGCAAUCAAACUGUGGUGUAAAUAGAUUCUCAGUGAUGGAAUUCUCGGGUGCCAA | 0.448 |
| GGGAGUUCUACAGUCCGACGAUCCUCCAGCCCUGGUCUUGUCUUUUCAUCCCUCUUCCCCACGACAGAAGAAGUUGUGGCCCUGGCCAUGUCAUCGUGUUCCUGUGUCCCCUGCAUGUACCCCACCCUCCACCUGGAAUUCUCGGGUGCCAA | 5.24 |
| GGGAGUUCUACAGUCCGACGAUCUGAAGCCUGCUAAAUGAAGAGACUUAAGAAAGCUUAAGGUACGCUUGCUUGUCUUUAAAUCUUCAAUAUGAAGGACUAUUAAUUCCAAGAUUAAAAGUUCAUAUAUAGGCUGGAAUUCUCGGGUGCCAA | 0.748 |
| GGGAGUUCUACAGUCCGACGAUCCAGCAGGGGUCAUGCCAAGUCAGGCCUGUAGCUCCUAAUAGGGGCCUAUUUCUACUUUUAUUUUGUAUUUCUGGUCUGUGAAAACAAUUUAAUAAAGGGAAAUGACUUUGUGGAAUUCUCGGGUGCCAA | 0.919 |
| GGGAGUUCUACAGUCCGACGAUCCCCCGCCCAGCUUAUCAACUCGUCCCCUCUUCCACACCUUCCCAGCAUCACAGUCAGAGGUCAGCAGGAAGCUGAGUCAUUACCUUCUUGGUGACCUCCCCCACCAUCUUUGGAAUUCUCGGGUGCCAA | 0.876 |
| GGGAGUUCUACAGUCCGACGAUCUAAUCUCUAAGGGGUCUGCUCCCCAGGAACGUUUCUGAACAAUGGGGACUUUGUUGGUAGCCAUUUGGUAGAUGUUCUUUUCUAUUUAUAAGUGACUUUAAACUUUCCCUUGGAAUUCUCGGGUGCCAA | 0.297 |
| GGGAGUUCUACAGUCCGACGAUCACGGCCGGCAAGAAUGGAUGUAAAAAUAUCUUGCUGCUUACAUCCAAAUUGCUGGUGGAUAUGGGGCUGAAGGCAGAAGCAGCUGGGAAGGGCAGUAGAGGCGCAAGCUGUGGAAUUCUCGGGUGCCAA | 2.04 |

Sample 3 — method: protein-binding microarray; molecule type: double-stranded DNA, one strand shown; matrix: in vitro; tested at: 2540 nM top; notes: 60-bp whole probe; added: salmon DNA 0.4 mg/ml; relative to: random background probes; direction: higher = stronger binding; shared flanks, not repeated: GCCTAGCAC … GTCTTGATTCGCTTGACGCTGCTG
Target: Interferon regulatory factor 3, full length, phosphomimetic (IRF3, Homo sapiens, UniProt Q14653, residues 1-427, S386D/S396D/S398D/S402D/T404D/S405D)
Target sequence (chain): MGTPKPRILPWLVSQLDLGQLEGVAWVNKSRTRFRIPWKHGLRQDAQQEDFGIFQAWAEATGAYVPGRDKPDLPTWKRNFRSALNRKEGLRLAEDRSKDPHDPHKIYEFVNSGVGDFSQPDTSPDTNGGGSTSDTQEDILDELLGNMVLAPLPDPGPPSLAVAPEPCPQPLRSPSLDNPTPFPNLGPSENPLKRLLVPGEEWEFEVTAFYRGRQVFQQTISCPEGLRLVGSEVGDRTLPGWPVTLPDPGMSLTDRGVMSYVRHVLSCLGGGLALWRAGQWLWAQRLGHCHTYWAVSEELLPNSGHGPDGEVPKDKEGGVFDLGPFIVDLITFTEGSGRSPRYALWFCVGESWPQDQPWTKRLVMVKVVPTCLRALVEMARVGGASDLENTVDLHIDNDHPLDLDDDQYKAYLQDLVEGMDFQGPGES
| Oligonucleotide | fitted relative affinity |
| --- | --- |
| TTAGGTTTCGGTACCGGTTAGTGCTAG | 7.48 z-score |
| TTAGATATCGGGTTTCGACTAGTGCTA | 0.801 z-score |
| TTAGGTATCGGACTGGGTTAGTGCTAG | 1.19 z-score |
| TTAGGTTCCGGTATCGGTTAGTGCTAG | 4.84 z-score |
| TTACCCCATCCCCCTTTTCTGTGCTAG | 1.72 z-score |
| TCACGTAAGCAAAAATGACTGTGCTAG | -0.35 z-score |
| TTAGGTATCGACTATCGGTTTGTGCTA | 0.909 z-score |
| TTAGATCTCCGTATCGATTAGTGCTAG | 1.36 z-score |
| GACGGTTTCCTTGTCCTGACGTGCTAG | 5.39 z-score |
| CTAATTTTCATTTTCCAAATGTGCTAG | 5.81 z-score |
| GACGGTATCCTTTTCCTTACGTGCTAG | 8.08 z-score |
| TTAGATTTCTGACTGGATTAGTGCTAG | 0.372 z-score |
| TTTCTGATCCATTTTGGTTTGTGCTAG | 5.48 z-score |
| TTCATTTTCTTTAACTCATTGTGCTAG | 1.71 z-score |
| TCTAACTTCCCAATGGTCTTGTGCTAG | 0.5 z-score |
| GACGATTTCAGTTCCGAGTCGTGCTAG | 3.79 z-score |

Sample 4 — method: protein binding microarray; molecule type: double-stranded DNA, one strand shown; matrix: in vitro; tested at: not given; relative to: not given; direction: higher = stronger binding
Target: Histone acetyltransferase KAT6A, both winged helices, GST fusion (KAT6A, Homo sapiens, UniProt Q92794, residues 1-181)
Notes: 8-mer, flanks averaged, mean of 2 arrays, mostly near background
Residues (chain): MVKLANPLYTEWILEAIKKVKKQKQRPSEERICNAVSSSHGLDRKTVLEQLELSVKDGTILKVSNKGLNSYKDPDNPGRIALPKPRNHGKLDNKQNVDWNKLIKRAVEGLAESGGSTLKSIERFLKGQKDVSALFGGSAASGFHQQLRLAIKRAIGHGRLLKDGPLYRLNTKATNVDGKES
| Oligonucleotide | E-score |
| --- | --- |
| AATGATAC | -0.0515 |
| CTACTTAC | -0.106 |
| ATCGTGCG | 0.17 |
| AACCAGTA | 0.0502 |
| GCGTTTCC | 0.18 |
| AACCTCGC | 0.0816 |
| TATTGGAA | -0.127 |
| GCAATCAA | -0.0601 |
| AGCAGCTA | -0.159 |
| CCCGGCGC | 0.322 |
| CATACGGA | 0.148 |
| CGACCCGC | 0.247 |
| TAAGCACA | 0.0512 |
| ACTTTTTA | -0.129 |
| AAGGAACC | 0.0067 |
| ATTCAGGA | -0.155 |
| CCTCCCAC | -0.0696 |
| AGCCGCGG | 0.402 |
| ACCATCCC | -0.149 |
| CTCTACCC | -0.271 |
| CGACCTAG | 0.0645 |
| AATTCTTA | -0.11 |
| ATCGTTAG | 0.0314 |
| CTCCTGAA | -0.0143 |
| ATTTCCGC | 0.206 |

For quick reference, copied from above (sample 4):
| Oligonucleotide | E-score |
| --- | --- |
| AAGGAACC | 0.0067 |
| ATTCAGGA | -0.155 |
| CCTCCCAC | -0.0696 |
| AGCCGCGG | 0.402 |
| ACCATCCC | -0.149 |
| CTCTACCC | -0.271 |
| CGACCTAG | 0.0645 |
